Published values from different studies.
Protocols differ between the studies behind these lines. ± gives the spread as reported.

| Compound | test | test system | setting | how to read | AUC(0-t) |
| --- | --- | --- | --- | --- | --- |
| Cl.[2H]C([2H])([2H])CC(=O)c1cnc(NC(=O)C2CC2)cc1Nc1cccc(-c2ncn(C([2H])([2H])[2H])n2)c1OC | geometric mean | human | oral, 50 mg single dose, fasted, liquid |  | 4100 ng·h/mL |
| C=CC(=O)N(C)CCOc1c(N)ncnc1-c1cc(F)cc(NC(=O)c2ccc(C3CC3)cc2F)c1C |  | human, whole blood | oral, 200 mg, single ascending dose |  | 624 ng·h/mL |
| C=CCn1c(=O)c2cnc(Nc3ccc(N4CCN(C)CC4)cc3)nc2n1-c1cccc(C(C)(C)O)n1 |  | human | oral, 250 mg once daily, cycle 1 day 17, added: durvalumab 1500 mg IV | geometric mean | 6.13 µM·h |
| NC1(C(=O)N[C@@H](CCO)c2ccc(Cl)cc2)CCN(c2nc[nH]c3nccc2-3)CC1 |  | human patients, plasma | dose not given, cohort 160/480, cycle 0, geometric mean |  | 3920 ng·h/mL |
| C[C@H]1CN(C(=O)CC#N)[C@]12CCN(c1ncnc3[nH]ccc13)C2 |  | healthy human, plasma | oral, 6 mg single, mean |  | 205 ng·h/mL |
| Cc1cc(-c2nnc(N)nc2-c2ccc(F)cc2)cc(Cl)n1 |  | human patients, plasma | oral, 100 mg nanosuspension once daily, multiple doses, arithmetic mean |  | 4850 ng·h/mL |
| Cc1cc(C)c(CNC(=O)c2cc(Cl)c3c(c2C)O[C@@](C)([C@H]2CC[C@H](N(C)C)CC2)O3)c(=O)[nH]1 | geometric LS mean | healthy male humans, plasma | oral, 25 mg, alone, itraconazole DDI study reference |  | 724 ng·h/mL |
| O=C(O)CCC(=O)O.[2H]C([2H])([2H])Oc1cc(C)c2[nH]ccc2c1CN1CC[C@@H](C2CC2)C[C@H]1c1ccc(C(=O)O)cc1 |  | healthy humans, fasted, plasma | oral, 200 mg, single dose |  | 123000 ng·h/mL |
| NC[C@@]1(CC(=O)O)[C@@H]2CC[C@H]3C[C@@H]2[C@@H]1C3 |  | human, moderate renal impairment, plasma | oral, 20 mg single dose, geometric mean |  | 3860 ng·h/mL |
| CO[C@H]1C[C@@H]2CC[C@@H](C)[C@@](O)(O2)C(=O)C(=O)N2CCCC[C@H]2C(=O)O[C@H]([C@H](C)C[C@@H]2CC[C@@H](OC(=O)NCCOCCOCCOCCOCCOCCOCCOCCOCCC(=O)N3CCc4cc(Cn5nc(-c6ccc7oc(N)nc7c6)c6c(N)ncnc65)ccc4C3)[C@H](OC)C2)C[C@@H](O)[C@H](C)/C=C(\C)[C@@H](O)[C@@H](OC)C(=O)[C@H](C)C[C@H](C)/C=C/C=C/C=C/1C |  | human, plasma | intravenous, 12 mg, cycle 1 day 15, arithmetic mean |  | 1210 ng·h/mL |
| CN(CC#N)C(=O)C[C@H](Nc1nc2ccccc2[nH]1)c1cccc(C(F)(F)F)c1 |  | human | intravenous infusion, 2 mg/kg, 1 mg/mL formulation |  | 11100 ± 708 ng·h/mL |
| CO[C@@H]1[C@H](OC(=O)N2CC(CCN3CCOCC3)C2)CC[C@]2(CO2)[C@H]1[C@@]1(C)O[C@@H]1CC=C(C)C |  | humans, plasma | subcutaneous, 1.8 mg twice weekly, first dose |  | 6.39 ± 3.06 ng·h/mL |

For quick reference, copied from above:
| Compound | test | test system | setting | how to read | AUC(0-t) |
| --- | --- | --- | --- | --- | --- |
| NC[C@@]1(CC(=O)O)[C@@H]2CC[C@H]3C[C@@H]2[C@@H]1C3 |  | human, moderate renal impairment, plasma | oral, 20 mg single dose, geometric mean |  | 3860 ng·h/mL |
| CN(CC#N)C(=O)C[C@H](Nc1nc2ccccc2[nH]1)c1cccc(C(F)(F)F)c1 |  | human | intravenous infusion, 2 mg/kg, 1 mg/mL formulation |  | 11100 ± 708 ng·h/mL |
